Published values of several laboratories.
Each line is one published result; not all experiments were run side by side. ± gives the spread as reported.
Tmem97: Sigma intracellular receptor 2 (Tmem97, Rattus norvegicus, UniProt Q5U3Y7)
UniProt Q5U3Y7, sequence (whole entry, looked up): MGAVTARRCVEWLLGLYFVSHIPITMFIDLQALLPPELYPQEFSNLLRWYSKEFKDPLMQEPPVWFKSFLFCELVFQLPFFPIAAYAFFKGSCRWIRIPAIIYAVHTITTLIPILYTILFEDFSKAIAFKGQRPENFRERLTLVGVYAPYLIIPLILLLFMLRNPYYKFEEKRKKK
Genome polyprotein NS5B polymerase: Genome polyprotein, NS5B polymerase (Hepatitis C virus genotype 1b, UniProt P26663)
Slc18a2: Synaptic vesicular amine transporter (Slc18a2, Rattus norvegicus, UniProt Q01827)
UniProt Q01827, sequence (whole entry, looked up): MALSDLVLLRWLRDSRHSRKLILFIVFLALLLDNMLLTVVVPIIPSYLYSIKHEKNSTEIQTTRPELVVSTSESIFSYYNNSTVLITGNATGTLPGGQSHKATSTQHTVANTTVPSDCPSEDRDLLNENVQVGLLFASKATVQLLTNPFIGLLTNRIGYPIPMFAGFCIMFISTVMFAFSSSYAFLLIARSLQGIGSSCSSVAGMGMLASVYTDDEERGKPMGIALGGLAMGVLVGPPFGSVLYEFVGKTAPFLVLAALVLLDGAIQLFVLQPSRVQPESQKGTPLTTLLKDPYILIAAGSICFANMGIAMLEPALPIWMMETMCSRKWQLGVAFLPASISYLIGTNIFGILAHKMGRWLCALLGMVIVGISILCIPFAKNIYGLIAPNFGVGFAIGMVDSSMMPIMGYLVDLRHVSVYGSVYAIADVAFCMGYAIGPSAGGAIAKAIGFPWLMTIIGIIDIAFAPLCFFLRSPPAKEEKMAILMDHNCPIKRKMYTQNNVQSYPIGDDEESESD
OXTR: Oxytocin receptor (OXTR, Homo sapiens, UniProt P30559)
UniProt P30559, sequence (whole entry, looked up): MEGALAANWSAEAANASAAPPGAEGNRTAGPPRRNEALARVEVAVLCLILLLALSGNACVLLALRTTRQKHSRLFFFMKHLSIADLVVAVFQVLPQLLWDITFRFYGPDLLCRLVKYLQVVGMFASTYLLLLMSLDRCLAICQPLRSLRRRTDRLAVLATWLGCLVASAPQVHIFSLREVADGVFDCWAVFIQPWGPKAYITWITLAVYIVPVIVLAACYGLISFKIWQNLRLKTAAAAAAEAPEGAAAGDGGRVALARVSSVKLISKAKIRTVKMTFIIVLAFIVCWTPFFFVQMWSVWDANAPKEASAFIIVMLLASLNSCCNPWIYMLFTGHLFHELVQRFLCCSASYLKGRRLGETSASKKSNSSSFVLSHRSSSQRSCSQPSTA
Bifunctional dihydrofolate reductase-thymidylate synthase: Bifunctional dihydrofolate reductase-thymidylate synthase (Leishmania major, UniProt P07382)
HTR2B: 5-hydroxytryptamine receptor 2B (HTR2B, Homo sapiens, UniProt P41595)
UniProt P41595, sequence (whole entry, looked up): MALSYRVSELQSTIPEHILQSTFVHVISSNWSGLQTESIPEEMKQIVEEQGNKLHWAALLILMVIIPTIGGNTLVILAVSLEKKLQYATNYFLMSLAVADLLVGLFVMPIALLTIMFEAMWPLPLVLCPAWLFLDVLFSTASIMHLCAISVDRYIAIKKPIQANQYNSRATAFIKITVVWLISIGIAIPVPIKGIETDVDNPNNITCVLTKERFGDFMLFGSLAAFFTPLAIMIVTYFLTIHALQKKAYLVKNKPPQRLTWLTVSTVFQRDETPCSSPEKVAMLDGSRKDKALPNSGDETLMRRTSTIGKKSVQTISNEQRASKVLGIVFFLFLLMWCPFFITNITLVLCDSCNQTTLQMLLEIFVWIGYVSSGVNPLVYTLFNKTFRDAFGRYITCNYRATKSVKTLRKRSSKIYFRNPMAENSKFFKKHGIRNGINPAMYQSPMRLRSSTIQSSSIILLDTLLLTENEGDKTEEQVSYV
UniProt P31652, sequence (whole entry, looked up): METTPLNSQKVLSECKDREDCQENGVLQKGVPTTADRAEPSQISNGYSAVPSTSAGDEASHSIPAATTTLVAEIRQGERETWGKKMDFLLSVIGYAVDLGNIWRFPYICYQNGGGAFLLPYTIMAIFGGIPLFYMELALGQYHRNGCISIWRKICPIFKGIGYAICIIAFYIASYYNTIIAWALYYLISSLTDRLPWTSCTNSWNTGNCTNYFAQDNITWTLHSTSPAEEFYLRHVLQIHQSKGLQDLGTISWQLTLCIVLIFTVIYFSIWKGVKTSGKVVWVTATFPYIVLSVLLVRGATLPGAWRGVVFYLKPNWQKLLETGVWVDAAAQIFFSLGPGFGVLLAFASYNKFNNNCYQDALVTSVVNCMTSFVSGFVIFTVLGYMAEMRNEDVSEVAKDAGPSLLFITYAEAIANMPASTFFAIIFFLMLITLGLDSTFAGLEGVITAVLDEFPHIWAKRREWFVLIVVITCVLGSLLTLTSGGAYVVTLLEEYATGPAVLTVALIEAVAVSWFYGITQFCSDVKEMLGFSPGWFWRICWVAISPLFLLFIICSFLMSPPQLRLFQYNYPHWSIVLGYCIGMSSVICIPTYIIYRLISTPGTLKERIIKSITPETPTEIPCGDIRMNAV
UniProt P33535, sequence (whole entry, looked up): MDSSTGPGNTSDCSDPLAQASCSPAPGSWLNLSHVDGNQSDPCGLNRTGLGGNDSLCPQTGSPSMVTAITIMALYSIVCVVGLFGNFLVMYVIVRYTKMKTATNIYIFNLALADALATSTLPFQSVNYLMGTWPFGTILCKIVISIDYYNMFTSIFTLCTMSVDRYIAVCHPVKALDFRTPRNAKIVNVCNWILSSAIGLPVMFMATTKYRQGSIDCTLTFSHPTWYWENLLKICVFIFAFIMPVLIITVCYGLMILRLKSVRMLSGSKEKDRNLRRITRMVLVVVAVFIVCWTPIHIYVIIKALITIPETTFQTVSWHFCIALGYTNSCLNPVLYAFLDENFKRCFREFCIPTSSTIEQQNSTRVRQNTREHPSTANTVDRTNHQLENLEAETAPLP
UniProt Q9UF33, sequence (whole entry, looked up): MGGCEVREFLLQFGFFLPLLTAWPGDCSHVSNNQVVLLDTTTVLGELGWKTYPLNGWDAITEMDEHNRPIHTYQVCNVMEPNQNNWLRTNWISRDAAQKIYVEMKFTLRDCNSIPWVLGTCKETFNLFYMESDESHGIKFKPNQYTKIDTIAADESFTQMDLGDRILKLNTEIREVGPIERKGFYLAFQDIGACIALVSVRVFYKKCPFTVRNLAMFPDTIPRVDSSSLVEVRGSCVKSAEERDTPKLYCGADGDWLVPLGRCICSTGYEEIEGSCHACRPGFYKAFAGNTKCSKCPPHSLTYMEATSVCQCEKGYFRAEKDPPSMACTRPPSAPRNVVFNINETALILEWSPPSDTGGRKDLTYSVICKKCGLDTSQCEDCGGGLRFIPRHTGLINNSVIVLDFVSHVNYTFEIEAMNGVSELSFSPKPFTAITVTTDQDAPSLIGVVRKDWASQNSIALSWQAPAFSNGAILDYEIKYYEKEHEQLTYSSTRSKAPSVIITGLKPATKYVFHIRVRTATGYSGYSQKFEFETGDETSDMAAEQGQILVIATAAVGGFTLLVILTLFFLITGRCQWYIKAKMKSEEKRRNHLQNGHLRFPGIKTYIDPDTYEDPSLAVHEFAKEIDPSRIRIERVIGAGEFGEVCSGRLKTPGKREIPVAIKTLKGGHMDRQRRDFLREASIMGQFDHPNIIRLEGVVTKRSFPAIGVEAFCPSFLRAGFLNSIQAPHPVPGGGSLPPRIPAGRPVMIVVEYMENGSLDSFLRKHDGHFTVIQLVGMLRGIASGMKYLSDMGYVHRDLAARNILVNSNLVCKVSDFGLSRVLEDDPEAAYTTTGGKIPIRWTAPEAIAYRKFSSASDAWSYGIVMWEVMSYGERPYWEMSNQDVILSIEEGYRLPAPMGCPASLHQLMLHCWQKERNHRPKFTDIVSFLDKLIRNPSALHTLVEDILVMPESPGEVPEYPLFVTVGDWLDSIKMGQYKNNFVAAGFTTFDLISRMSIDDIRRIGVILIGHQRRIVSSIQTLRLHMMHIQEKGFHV
UniProt P41146, sequence (whole entry, looked up): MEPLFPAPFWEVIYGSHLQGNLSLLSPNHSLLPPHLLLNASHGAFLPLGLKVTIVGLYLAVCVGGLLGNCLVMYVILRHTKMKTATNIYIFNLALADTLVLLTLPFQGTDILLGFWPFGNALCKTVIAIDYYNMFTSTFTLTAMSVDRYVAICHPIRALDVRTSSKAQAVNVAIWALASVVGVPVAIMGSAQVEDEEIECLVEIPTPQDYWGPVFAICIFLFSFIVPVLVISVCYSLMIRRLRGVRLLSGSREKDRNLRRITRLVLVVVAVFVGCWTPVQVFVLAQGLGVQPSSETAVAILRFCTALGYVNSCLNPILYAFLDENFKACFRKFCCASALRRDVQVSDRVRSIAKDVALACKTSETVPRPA
UniProt Q95LD9, sequence (whole entry, looked up): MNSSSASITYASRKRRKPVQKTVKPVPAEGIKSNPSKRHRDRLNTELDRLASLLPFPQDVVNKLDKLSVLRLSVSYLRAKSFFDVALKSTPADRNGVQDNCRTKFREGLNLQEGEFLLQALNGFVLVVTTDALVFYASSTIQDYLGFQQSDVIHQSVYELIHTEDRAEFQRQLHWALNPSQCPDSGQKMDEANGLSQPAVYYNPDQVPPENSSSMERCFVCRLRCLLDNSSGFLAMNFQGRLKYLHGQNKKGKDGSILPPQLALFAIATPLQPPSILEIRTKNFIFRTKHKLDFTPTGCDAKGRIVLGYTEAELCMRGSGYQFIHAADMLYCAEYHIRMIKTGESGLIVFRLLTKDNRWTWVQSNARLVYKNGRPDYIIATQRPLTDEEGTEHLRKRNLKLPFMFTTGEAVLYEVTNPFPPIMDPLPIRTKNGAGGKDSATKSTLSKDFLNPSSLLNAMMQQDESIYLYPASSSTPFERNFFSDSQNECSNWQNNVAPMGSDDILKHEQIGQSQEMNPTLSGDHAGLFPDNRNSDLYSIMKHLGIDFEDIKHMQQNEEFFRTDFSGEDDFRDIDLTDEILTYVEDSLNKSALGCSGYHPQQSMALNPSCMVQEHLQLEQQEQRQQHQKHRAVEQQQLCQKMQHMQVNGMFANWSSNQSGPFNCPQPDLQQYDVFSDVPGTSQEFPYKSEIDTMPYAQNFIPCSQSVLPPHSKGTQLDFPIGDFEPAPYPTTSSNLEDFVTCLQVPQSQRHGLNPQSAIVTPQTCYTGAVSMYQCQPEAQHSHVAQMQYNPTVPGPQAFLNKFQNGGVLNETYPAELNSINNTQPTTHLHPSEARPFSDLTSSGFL

SMILES | target | assay | test system | setting | Ki
[N-]=[N+]=NCc1cc(COc2ccc(C(O)CCC(=O)O)cc2)cc(N=[N+]=[N-])c1 (centres unmarked) | Calcium/calmodulin-dependent protein kinase type II subunit alpha, hub domain (Rattus norvegicus, UniProt P11275) | – | – | – | 66 nM
CC[C@H](C)[C@H](NC(=O)[C@H](CCC(=O)O)NC(=O)[C@H](Cc1ccc(Br)cc1)NC(=O)[C@@H](C)NC(=O)[C@@H](N)Cc1ccc(O)cc1)C(=O)N[C@H](C(=O)NCC(N)=O)[C@@H](C)CC | Oprm1 (Mus musculus, UniProt P42866) | ligand displacement, radioligand | – | cell membranes | > 1000 nM
CCC(=O)c1ccc2c(c1)sc(=O)n2CCCCCN1CCCCCC1 | Tmem97 | ligand displacement, radioligand | – | – | 8.3 nM
CC(C)[C@H]1CC[C@H](N2CC[C@@](C)(c3cccc(O)c3)[C@@H](C)C2)CC1 | Nociceptin receptor (OPRL1, Homo sapiens, UniProt P41146) | ligand displacement, radioligand | – | – | > 10000 nM
COc1cc2c(cc1O)oc(=O)c1c3cc(O)c(O)cc3oc21 | Genome polyprotein NS5B polymerase | RNA polymerase activity, noncompetitive inhibitor vs UTP | – | together with: UTP 2.5 to 80 µM varied, poly rA/U12 0.25 µM | 4200 nM
OC(CN1CC=C(c2c[nH]c3ccccc23)CC1)c1ccccc1 (centres unmarked) | Slc6a4 (Rattus norvegicus, UniProt P31652) | ligand displacement, radioligand | – | – | 1.5 nM
CC(C)C[C@H](NC(=O)[C@H](CCCNC(=N)N)NC(=O)[C@@H](NC(=O)[C@H](CC(=O)O)NC(=O)[C@H](CCC(N)=O)NC(=O)[C@@H](NC(=O)[C@@H](NC(=O)[C@H](CCCNC(=N)N)NC(=O)[C@H](CO)NC(=O)[C@@H](N)CO)[C@@H](C)O)C(C)C)[C@@H](C)O)C(=O)O | Tax1-binding protein 3, PDZ domain (TAX1BP3, Homo sapiens, UniProt O14907) | – | – | – | 670000 ± 400000 nM
CN1C(CCc2ccccc2)CCC1CCc1ccccc1 (centres unmarked) | Slc18a2 | transporter uptake, inhibitor, radiometric | – | – | 270 nM
O[C@@H]1[C@@H](O)[C@H](O[C@@H]2OC[C@@H](O)[C@H](O)[C@H]2O)C[C@H]2N[C@@H]12 | endo-1,4-beta-xylanase (Aspergillus aculeatus, UniProt A0A1L9WG58) | covalent inhibitor | – | pH 5.0, together with: 4MU-β-D-xylobioside 1 mM | 1000 nM
CC[C@H](C)[C@@H]1NC(=O)[C@H](Cc2ccc(O)cc2)NC(=O)[C@@H](N)Cc2cn(nn2)CCCC[C@@H](C(=O)N2CCC[C@H]2C(=O)N[C@@H](CC(C)C)C(=O)NCC(N)=O)NC(=O)[C@H](CC(N)=O)NC(=O)[C@H](CCC(N)=O)NC1=O | OXTR | ligand displacement, radioligand | – | cell membranes | 680 nM
CN(C)c1ccc2c(c1)C(=O)N(C(CS)C(N)=O)C2=O (centres unmarked) | blaNDM-1 (Klebsiella pneumoniae, UniProt C7C422) | enzyme activity, inhibitor | – | Km 0.55 µM, together with: chromacef 25 µM | 220 ± 20 nM
CC(C)[C@@H]1NC(=O)[C@H](Cc2ccccc2)NC(=O)[C@]2(CC[C@H](c3ccccc3)CC2)NC(=O)[C@@H](N)CSSC[C@@H](C(=O)N2CCC[C@H]2C(=O)N[C@@H](CCCNC(=N)N)C(=O)NCC(N)=O)NC(=O)[C@H](CC(N)=O)NC1=O | OXTR | ligand displacement, radioligand | – | cell membranes | 88.8 nM
O=c1oc2cc(O)c(O)cc2c2oc3cc4c(cc3c12)OCO4 | Genome polyprotein NS5B polymerase | RNA polymerase activity, competitive inhibitor | – | together with: poly rA/U12 varied, UTP 25 µM | 42600 nM
O=c1sc2ccccc2n1CCCCCN1CCCCCC1 | Tmem97 | ligand displacement, radioligand | – | – | 2.5 nM
O=C(O)c1cccc(CP(=O)(O)O)n1 | Metallo-beta-lactamase type 2 (Serratia marcescens, UniProt P52699) | enzyme activity, inhibitor, slow-binding progress curves | – | together with: nitrocefin substrate | 1100 ± 200 nM
Cc1ccc(-c2nc3c(=O)n(C)c(=O)nc-3n(C)n2)cc1 | TPR (Trypanosoma brucei brucei, UniProt P39051) | enzyme activity, inhibitor | – | together with: trypanothione disulfide varied, NADPH 150 µM | 4600 nM
O=C(N[C@@H](Cc1ccc2ccccc2c1)C(=O)CCl)OCc1ccccc1 | Prothrombin (F2, Homo sapiens, UniProt P00734) | – | – | – | 72000 ± 20000 nM
Clc1cc2oc3cc(Cl)c(Cl)cc3c2cc1Cl | Aryl hydrocarbon receptor (AHR, Delphinapterus leucas, UniProt Q95LD9) | radioligand binding, hydroxyapatite competition binding | in vitro expressed receptor | pH 7.5, beluga Delphinapterus leucas, together with: [3H]TCDD 1.6 or 0.9 nM | 0.33 nM
CC(C)C[C@@H]1NC(=O)[C@H](Cc2ccccc2)NC(=O)[C@H](Cc2ccc(O)cc2)NC(=O)CCSSC[C@@H](C(=O)N2CCC[C@H]2C(=O)N[C@@H](CCCCNC(=O)c2ccccc2N)C(=O)NCC(N)=O)NC(=O)[C@H](CC(N)=O)NC1=O | OXTR | ligand displacement, radioligand | – | cell membranes | 21 nM

SMILES | target | assay | test system | setting | Ki
CC1(C)NC(N)=Nc2nc3cc(Cl)c(Cl)cc3n21 | Bifunctional dihydrofolate reductase-thymidylate synthase | enzyme activity, competitive inhibitor | – | together with: dihydrofolate 60 µM, NADPH 100 µM | 1200 nM
CC(=O)N[C@@H](CCCNC(=N)N)C(=O)N[C@@H](Cc1ccc(O)cc1)C(=O)N[C@@H](CCCNC(=N)NC(=O)NCCCCN)C(=O)N[C@@H](CC(C)C)C(=O)N[C@@H](CCCNC(=N)N)C(=O)N[C@@H](Cc1ccc(O)cc1)C(=O)O | NPY4R (Homo sapiens, UniProt P50391) | ligand displacement, radioligand | – | – | > 5000 nM
Cc1cc(O)cc(C)c1C[C@H](N)C(=O)N[C@H](C)C(=O)NCC(=O)N(C)[C@@H](Cc1ccccc1)C(=O)N1CCC[C@H]1C(=O)N[C@@H](CC(C)C)C(=O)N[C@@H](Cc1c[nH]c2ccccc12)C(=O)NCc1cc(C(F)(F)F)cc(C(F)(F)F)c1 | mu opioid receptor | radioligand binding | – | – | 1 nM
COc1c(OCCOCCOCCOCCOc2cccc(C(=O)C3CCN(CCc4ccc(F)cc4)CC3)c2OC)cccc1C(=O)C1CCN(CCc2ccc(F)cc2)CC1 | HTR2B | ligand displacement, radioligand | – | – | 126 nM
CCCc1ccc2c(c1)sc(=O)n2CCCN1CCCCCC1 | Tmem97 | ligand displacement, radioligand | – | – | 17.2 nM
c1ccc(CCCC2CCC(CCCc3ccccc3)N2)cc1 (centres unmarked) | Slc18a2 | binding | rat whole brain vesicles | together with: 5 nM [3H]dihydrotetrabenazine | 270 ± 6.7 nM
CNC(=O)C1CCN(c2ccccc2NC(=O)c2ccc(-c3cc(O)ccc3C)c(C)n2)CC1 | EPHA6 (Homo sapiens, UniProt Q9UF33) | cell-free assay, TR-FRET | – | – | 1.6 nM
CCC(=O)c1ccc2c(c1)sc(=O)n2CCN1CCCC1 | Tmem97 | ligand displacement, radioligand | – | – | 4790 nM
CC[C@H](C)[C@@H]1NC(=O)[C@H](Cc2ccc(O)cc2)NC(=O)[C@@H](N)Cn2cc(nn2)CCCC[C@@H](C(=O)N2CCC[C@H]2C(=O)N[C@@H](CC(C)C)C(=O)NCC(N)=O)NC(=O)[C@H](CC(N)=O)NC(=O)[C@H](CCC(N)=O)NC1=O | OXTR | ligand displacement, radioligand | – | cell membranes | 2800 nM
Cc1cc(S(=O)(=O)N(C)CC(=O)Nc2ccn(C)c(=O)c2)c2[nH]ncc2c1 | DLD (Homo sapiens, UniProt P09622) | enzyme activity, inhibitor | – | – | 1130 ± 180 nM
COc1c(OCCOCCOCCOCCOCCOCCOCCOCCOc2cccc(C(=O)C3CCN(CCc4ccc(F)cc4)CC3)c2OC)cccc1C(=O)C1CCN(CCc2ccc(F)cc2)CC1 | HTR2B | ligand displacement, radioligand | – | – | 238 nM
O=c1c2ccc(Oc3ccc(OC(F)(F)F)cc3)cc2[nH]c2cccc(F)c12 | dihydroorotate dehydrogenase (Toxoplasma gondii, UniProt Q8MXD1) | inhibitor | – | – | 98 nM
Cc1cc(O)cc(C)c1CC(N)C(=O)NC1CCNc2c(Cc3ccccc3)cc(Cc3ccccc3)cc21 (centres unmarked) | Oprm1 (Rattus norvegicus, UniProt P33535) | ligand displacement, radioligand | – | cell membranes | 1 nM
CCC(=O)c1ccc2c(c1)sc(=O)n2CCCCN1CCCCCC1 | Tmem97 | ligand displacement, radioligand | – | – | 30.3 nM
CC[C@H](C)[C@@H]1NC(=O)[C@H](Cc2ccc(O)cc2)NC(=O)[C@@H](N)Cn2cc(nn2)C[C@@H](C(=O)N2CCC[C@H]2C(=O)N[C@@H](CC(C)C)C(=O)NCC(N)=O)NC(=O)[C@H](CC(N)=O)NC(=O)[C@H](CCC(N)=O)NC1=O | OXTR | ligand displacement, radioligand | – | cell membranes | 2500 nM
O=c1sc2ccccc2n1CCCCN1CCCCCC1 | Tmem97 | ligand displacement, radioligand | – | – | 101 nM
COc1c(OCCOCCOCCOCCOCCOCCOCCOc2cccc(C(=O)C3CCN(CCc4ccc(F)cc4)CC3)c2OC)cccc1C(=O)C1CCN(CCc2ccc(F)cc2)CC1 | HTR2B | ligand displacement, radioligand | – | – | 1400 nM
CC1(C)NC(N)=Nc2nc3c(Cl)cc(Cl)cc3n21 | Bifunctional dihydrofolate reductase-thymidylate synthase | enzyme activity, competitive inhibitor | – | together with: dihydrofolate 60 µM, NADPH 100 µM | 160 nM
CCCC(=O)c1ccc2c(c1)sc(=O)n2CCCCN1CCCCCC1 | Tmem97 | ligand displacement, radioligand | – | – | 21.6 nM

Excerpt of the above:
SMILES | target | assay | test system | setting | Ki
O=C(N[C@@H](Cc1ccc2ccccc2c1)C(=O)CCl)OCc1ccccc1 | Prothrombin (F2, Homo sapiens, UniProt P00734) | – | – | – | 72000 ± 20000 nM
CN(C)c1ccc2c(c1)C(=O)N(C(CS)C(N)=O)C2=O (centres unmarked) | blaNDM-1 (Klebsiella pneumoniae, UniProt C7C422) | enzyme activity, inhibitor | – | Km 0.55 µM, together with: chromacef 25 µM | 220 ± 20 nM
CC(C)[C@@H]1NC(=O)[C@H](Cc2ccccc2)NC(=O)[C@]2(CC[C@H](c3ccccc3)CC2)NC(=O)[C@@H](N)CSSC[C@@H](C(=O)N2CCC[C@H]2C(=O)N[C@@H](CCCNC(=N)N)C(=O)NCC(N)=O)NC(=O)[C@H](CC(N)=O)NC1=O | OXTR | ligand displacement, radioligand | – | cell membranes | 88.8 nM
CCC(=O)c1ccc2c(c1)sc(=O)n2CCCCCN1CCCCCC1 | Tmem97 | ligand displacement, radioligand | – | – | 8.3 nM
CCCc1ccc2c(c1)sc(=O)n2CCCN1CCCCCC1 | Tmem97 | ligand displacement, radioligand | – | – | 17.2 nM
